# Experimental data gathered from unrelated publications.
# Each line is one published result; not all experiments were run side by side. ± gives the spread as reported.
Compound,target or system,test,system,conditions,how to read,quantity,result
CC[C@@H](C)[C@@H](NC(=O)[C@@H](Cc1c[nH]c2ccccc12)NC(=O)[C@@H](CCCNC(=N)N)NC(=O)[C@H](CCC(N)=O)NC(=O)[C@@H]1CCCN1C(=O)[C@H](CCCNC(=N)N)NC(=O)[C@H](CCCNC(=N)N)NC(=O)[C@H](CCCNC(=N)N)NC(=O)[C@H](CCC(N)=O)NC(=O)[C@H](CCCNC(=N)N)NC(=O)[C@H](CCCNC(=N)N)NC(=O)[C@H](CCCCN)NC(=O)[C@H](CCCCN)NC(=O)[C@H](CCCNC(=N)N)NC(=O)CN)C(=O)N[C@H](CCSC)C(=O)N[C@H](Cc1ccc(O)cc1)C(=O)N[C@H](Cc1ccccc1)C(N)=O,fibroblasts,,,,,IC50,81 µM
CCC(C)C(C(CC(=O)N1CCCC1C(OC)C(C)C(=O)NC(Cc1ccccc1)C(=O)O)OC)N(C)C(=O)C(NC(=O)C(C(C)C)N(C)C(=O)CCSSc1ccccn1)C(C)C (stereo not drawn),HeLa,"cell growth, MTT",,"2 h treatment, read at 72 h",,IC50,~5 µM
CC(C)[C@H](NC(=O)[C@H](Cc1c[nH]c2ccccc12)NC(=O)[C@H](Cc1c[nH]cn1)NC(=O)[C@H](CCCNC(=N)N)NC(=O)[C@H](CCCNC(=N)N)NC(=O)[C@H](Cc1c[nH]c2ccccc12)NC(=O)[C@H](Cc1c[nH]c2ccccc12)NC(=O)[C@H](Cc1c[nH]cn1)NC(=O)[C@H](Cc1c[nH]c2ccccc12)NC(=O)[C@H](CCCNC(=N)N)NC(=O)[C@@H](N)CCCCN)C(=O)N[C@H](C(=O)N[C@@H](Cc1c[nH]c2ccccc12)C(N)=O)C(C)C,HUVEC,,,,,IC50,134 µM
CCC1(C2=NCCN2)Cc2ccccc2O1 (stereo not drawn),Plasmodium falciparum,,GB4,,,IC50,12.6 µM
N.N.[Cl][Pt][Cl],"THLE-2, 3D culture",MTT,,96 h,,IC50,4.6 ± 0.21 µM
CC[C@H](C)[C@@H]1NC(=O)[C@H](Cc2ccc(-c3ccccc3)cc2)NC(=O)[C@H](CC(C)C)NC(=O)[C@@H]2[C@@H](c3ccccc3)CCN2C(=O)[C@H](NC(=O)[C@H](CCCNC(=N)N)NC(=O)[C@H](CCCNC(=N)N)NC(=O)[C@H](CCCCN=[N+]=[N-])NC(C)=O)CSCSC[C@@H](C(=O)N[C@@H](CCCNC(=N)N)C(=O)N[C@@H](CCCNC(=N)N)C(N)=O)NC(=O)[C@H](C(C)C)NC(=O)[C@@H]2CCCN2C(=O)[C@H](CC(=O)O)NC(=O)[C@H](Cc2ccc(O)cc2)NC(=O)[C@H](CO)NC1=O,AsPC-1,LDH release,,18 h,,IC50,> 50 µM
COc1cc2c(c(OC)c1OC)-c1ccc(OC)c(=O)cc1[C@@H](NC(C)=O)CC2,HeLa 14 expressing mutant P-gp,,,48 h,,IC50,0.034 ± 0.0017 µM
N=C(Nc1ccccc1)c1cc2c(-c3ccccc3)n[nH]c2c(Nc2ccccc2)n1,SKOV3,"cell viability, MTS",,48 h,,IC50,1.1 ± 0.1 µM
C=CCO[C@H]1CCN2C(=O)[C@H](NC(=O)[C@H](CCCNC(=N)N)NC(=O)[C@H](CCCNC(=N)N)NC(C)=O)CSCSC[C@@H](C(=O)N[C@@H](CCCNC(=N)N)C(=O)N[C@@H](CCCNC(=N)N)C(N)=O)NC(=O)[C@H](C(C)C)NC(=O)[C@@H]3CCCN3C(=O)[C@H](CC(=O)O)NC(=O)[C@H](Cc3ccc(O)cc3)NC(=O)[C@H](CO)NC(=O)[C@H]([C@@H](C)CC)NC(=O)[C@H](Cc3ccc(-c4ccccc4)cc3)NC(=O)[C@H](CC(C)C)NC(=O)[C@H]12,AsPC-1,LDH release,,18 h,,IC50,> 50 µM
C[C@H]1CN(c2n[nH]c3nc(N[C@H]4CC[C@H](NS(=O)(=O)CCC(F)(F)F)CC4)ncc23)CCO1,"Putative ribosomal protein uL10-like (RPLP0P6, Homo sapiens, UniProt Q8NHW5)","competitor, Kinobeads competition, item: RPLP0-like",human cell extract,20 µM,baseline: vehicle,relative abundance,1.09
CN1CCN(S(=O)(=O)c2cc([N+](=O)[O-])ccc2N(CCOS(C)(=O)=O)CCOS(C)(=O)=O)CC1,HCT-116 overexpressing AKR1C3,"cell growth, sulforhodamine B",,96 h,,IC50,0.0018 µM
COc1cc(Nc2nc(CNCc3ccccc3)cc3c(-c4ccccc4)n[nH]c23)cc(OC)c1OC,SKOV3,"cell viability, MTS",,48 h,,IC50,4.1 ± 0.2 µM
COc1c(C)c2c(c(O)c1C/C=C(\C)CCC(=O)O)C(=O)OC2,786-O,cell proliferation,,,,IC50,0.646 µM
C=CCO[C@H]1CCN2C(=O)[C@H](NC(=O)[C@H](CCCNC(=N)N)NC(=O)[C@H](CCCNC(=N)N)NC(C)=O)CSCSC[C@@H](C(=O)N[C@@H](CCCNC(=N)N)C(=O)N[C@@H](CCCNC(=N)N)C(N)=O)NC(=O)[C@H](CCCCC)NC(=O)[C@@H]3CCCN3C(=O)[C@H](CC(=O)O)NC(=O)[C@H](Cc3ccc(O)cc3)NC(=O)[C@H](CO)NC(=O)[C@H]([C@@H](C)CC)NC(=O)[C@H](Cc3ccc(-c4ccccc4)cc3)NC(=O)[C@H](CC(C)C)NC(=O)[C@H]12,AsPC-1,LDH release,,18 h,,IC50,> 50 µM
CN(C)c1ccc(O)c2c1C[C@H]1C[C@H]3[C@H](N(C)C)C(O)=C(C(N)=O)C(=O)[C@@]3(O)C(O)=C1C2=O,Plasmodium falciparum,,W2,,,IC50,0.794 µM
NCc1cc2c(-c3ccccc3)n[nH]c2c(Nc2ccccc2)n1,SKOV3,"cell viability, MTS",,48 h,,IC50,4.3 ± 0.3 µM
CC(C)=C[C@H]1C[C@H](C)[C@]2(CC[C@]3(C)C[C@H]4[C@H]5/C(=C\C[C@H]32)CO[C@@]5(O)C[C@@]4(C)O)O1,"HMLE-TWIST mammary epithelial, EMT+",cell viability,,,,IC50,~8 µM
Cc1cc(N(CCOS(C)(=O)=O)CCOS(C)(=O)=O)ccc1C(=O)O,A498,cell growth,,,,IC50,23.5 µg/mL
C=CCNC1=C2C[C@@H](C)C[C@H](OC)[C@H](O)[C@@H](C)/C=C(\C)[C@H](OC(N)=O)[C@@H](OC)/C=C\C=C(/C)C(=O)NC(=C(C)C1=O)C2=O,HUVEC,"cytotoxicity, MTT",,,,IC50,> 20 µM
O=C1[O][Pt]2([NH][C@@H]3CCCC[C@H]3[NH]2)[O]C1=O,LoVo resistant to compound,"cell viability, MTT",,72 h,,IC50,21.9 ± 1.86 µM
COC1=C2C[C@@H](C)C[C@H](OC)[C@H](O)[C@@H](C)/C=C(\C)[C@H](OC(N)=O)[C@@H](OC)/C=C\C=C(/C)C(=O)NC(=C(C)C1=O)C2=O,HUVEC,"cytotoxicity, MTT",,,,IC50,16.9 ± 3.3 µM
COc1cc([C@@H]2c3cc4c(cc3[C@@H](O[C@@H]3O[C@@H]5CO[C@@H](C)O[C@H]5[C@H](O)[C@H]3O)[C@H]3COC(=O)[C@H]23)OCO4)cc(OC)c1O,HeLa 14 expressing mutant P-gp,,,48 h,,IC50,2.9 ± 0.5 µM
Cc1ncsc1-c1ccc([C@H](C)NC(=O)[C@@H]2C[C@@H](O)CN2C(=O)[C@@H](c2cc(N3CCC(CN4CCC(OC5CC(Oc6cc(N7C8CCC7CN(c7cc(-c9ccccc9O)nnc7N)C8)ccn6)C5)CC4)CC3)no2)C(C)C)cc1 (stereo partly drawn),NCI-H522 SMARCA4/SMARCA2-deficient,"cell viability, CellTiter-Glo",,7 days,,IC50,> 1 µM
N.N.[Cl][Pt][Cl],HL-7702 normal hepatocytes,"cell viability, MTT",,48 h,,IC50,17.1 ± 1.04 µM

# Excerpt of the above:
Compound,target or system,test,system,conditions,how to read,quantity,result
CN(C)c1ccc(O)c2c1C[C@H]1C[C@H]3[C@H](N(C)C)C(O)=C(C(N)=O)C(=O)[C@@]3(O)C(O)=C1C2=O,Plasmodium falciparum,,W2,,,IC50,0.794 µM
NCc1cc2c(-c3ccccc3)n[nH]c2c(Nc2ccccc2)n1,SKOV3,"cell viability, MTS",,48 h,,IC50,4.3 ± 0.3 µM
CC(C)=C[C@H]1C[C@H](C)[C@]2(CC[C@]3(C)C[C@H]4[C@H]5/C(=C\C[C@H]32)CO[C@@]5(O)C[C@@]4(C)O)O1,"HMLE-TWIST mammary epithelial, EMT+",cell viability,,,,IC50,~8 µM
Cc1cc(N(CCOS(C)(=O)=O)CCOS(C)(=O)=O)ccc1C(=O)O,A498,cell growth,,,,IC50,23.5 µg/mL
